Measured values collected from several papers.
Each line is one published result; not all experiments were run side by side.

COc1ncccc1-c1cnn2ccc(N3CCN(C(=O)OC(C)C)CC3)nc12
drug concentration (rat, rotarod test, plasma; 60 mg/kg, 180 min): 2900 nM

CCCSc1ccc2nc(NC(=O)OC)[nH]c2c1
mean corpuscular haemoglobin (mouse, blood; oral, 50 mg/kg, tolerability, mean): 17.2 pg

C=CC(=O)Nc1cc(Nc2nccc(Nc3cc(Cl)c(F)cc3C(C)(C)O)n2)c(OC)cc1N1CC[C@@H](N(C)C)C1
patients with adverse event Hypokalaemia (human; oral, dose not given, phase I clinical): 12.7%

CCC[C@@](N)(CO)CCc1ccc(OCCCCCC(C)C)cc1
half-life (dog, male hounds, plasma; oral capsule, 15 mg/kg, median): 16.2 h

CC1(C)[C@H](C(=O)OCc2cccc(Oc3ccccc3)c2)[C@@H]1C=C(Cl)Cl
enzyme contribution to clearance (measured: CYP3A4; human, age 1 year, recombinant human CYP3A4; 0.1 µM): 0.64%

CO[C@H]1C[C@@H]2CC[C@@H](C)[C@@](O)(O2)C(=O)C(=O)N2CCCC[C@H]2C(=O)O[C@H]([C@H](C)C[C@@H]2CC[C@@H](OC(=O)NCCOCCOCCOCCOCCOCCOCCOCCOCCC(=O)N3CCc4cc(Cn5nc(-c6ccc7oc(N)nc7c6)c6c(N)ncnc65)ccc4C3)[C@H](OC)C2)C[C@@H](O)[C@H](C)/C=C(\C)[C@@H](O)[C@@H](OC)C(=O)[C@H](C)C[C@H](C)/C=C/C=C/C=C/1C
abdominal pain incidence (patients with advanced solid tumours; intravenous, 8 mg weekly, any grade): 25%

CN1CCN(c2cccc3c2CCN(C(=O)/C=C/c2c(-n4cnnn4)ccc(Cl)c2F)[C@@H]3C(=O)Nc2ccc(C(=O)O)cc2)C(=O)C1
deaths (healthy human subjects; intravenous infusion, 3 mg/h, 5 days): 0%

CC(=O)c1c(C)c2cnc(Nc3ccc(C4CCN(CCS(C)(=O)=O)CC4)cn3)nc2n(C2CCCC2)c1=O
clearance (human, plasma; oral, 75 mg twice daily, day 21, multiple doses, added: letrozole): 1660 mL/min

O=C(c1ccc(F)c(F)c1Nc1ccc(I)cc1F)N1CC(O)([C@@H]2CCCCN2)C1
treatment-related adverse events (patients aged 6 to sample A years; oral, dose not given): 90%

NCCCC[C@@H]1NC(=O)[C@@H](Cc2c[nH]c3ccccc23)NC(=O)[C@H](c2ccccc2)NC(=O)[C@@H]2C[C@@H](OC(=O)NCCN)CN2C(=O)[C@H](Cc2ccccc2)NC(=O)[C@H](Cc2ccc(OCc3ccccc3)cc2)NC1=O
subjects with upper abdominal pain (healthy human volunteers; 1950 µg twice daily): 9%

COc1cc2c(Oc3ccc4[nH]c(C)cc4c3F)ccnc2cc1OCC1(N)CC1
grade 3 abdominal pain (paediatric recurrent refractory sarcoma; 8 mg): 0%

CC(C)[C@@H](CN1CC[C@@](C)(c2cccc(O)c2)[C@@H](C)C1)NC(=O)[C@@H]1Cc2ccc(O)cc2CN1C
AUCtotal (rat, plasma; intraperitoneal, 5 mg/kg): 1100 ng·h/mL

COc1ccnc(C(=O)N[C@H]2COC(=O)[C@H](Cc3ccccc3)[C@@H](OC(=O)C(C)C)[C@H](C)OC2=O)c1OCOC(=O)C(C)C
DT50 (aerobic dark soil incubation; soil; geometric mean of 4 soils, persistence endpoint): 1.3 days

Repeated from above:
CCCSc1ccc2nc(NC(=O)OC)[nH]c2c1
mean corpuscular haemoglobin (mouse, blood; oral, 50 mg/kg, tolerability, mean): 17.2 pg
